Measured values collected from several papers.
Protocols differ between the studies behind these lines. ± gives the spread as reported.

Molecule	cell line	test	conditions	scale	endpoint	value
CN(C)c1cc2[nH]c(C3CCCCC3)nc2cc1NC(=O)c1ccc(F)cc1F	Vero	cytotoxicity, Alamar Blue	3 days, 37 °C		IC50	> 100 µg/mL
CCCCCc1ccc(-c2oc3nc(=O)n([C@H]4C[C@H](OC(C)=O)[C@@H](COC(C)=O)O4)cc3c2C#CCO)cc1	HEL human embryonic lung	cell morphology			minimum cytotoxic concentration	100 µM
Cn1c(=O)c2c(ncn2Cc2nnc(SCC(=O)Nc3ccccc3)n2-c2ccccc2)n(C)c1=O	bovine erythrocytes		1 mg/mL, 30 min, 37 °C		haemolysis	17%
COc1ccc2c(C[Se][C@@H]3O[C@H](CO)[C@H](O)[C@H](O)[C@H]3O)cc(=O)oc2c1	J774	cell growth or viability, WST-1	24 h		CC50	> 100 µM
CCCCOC(=O)Nc1cc2nc(C3CCCCC3)[nH]c2cc1N(CC)CCN(CC)CC	Vero	cytotoxicity, Alamar Blue	3 days, 37 °C		IC50	> 50 µg/mL
O=C(O)c1cc(O)c2c(c1)C(=O)c1cccc(O)c1C2=O	Caco-2 monolayer		in Rhizoma extract, extract 0.025 mg/mL	baseline: Papp(B-A) over Papp(A-B)	efflux ratio	1.03
Cc1ccc(C)c(N2CCN(c3c(C)c(C)nc4ncnn34)CC2)c1	BRE-Luc reporter cells	luciferase counter screen			cytotoxicity onset concentration	> 17.9 µM
CCCCCCCCCC[N+](C)(C)C	horse PBMCs	resazurin viability			CC50	1260 µM
Cn1c(=O)c2c(ncn2Cc2nnc(SCC(=O)Nc3ccc(Cl)cc3Cl)n2-c2ccccc2)n(C)c1=O	bovine erythrocytes		1 mg/mL, 30 min, 37 °C		haemolysis	15%
Telavancin	J774 mouse macrophages		24 h, 37 °C, 10% fetal calf serum, concentration range		uptake clearance	10 ± 0.4 µL/mg protein/h
Cn1c(=O)c2c(ncn2Cc2nnc(SCC(=O)Nc3ccccc3F)n2-c2ccccc2)n(C)c1=O	bovine erythrocytes		1 mg/mL, 30 min, 37 °C		haemolysis	4.6%
CCCCCc1ccc(-c2oc3nc(=O)n([C@H]4C[C@H](OC(C)=O)[C@@H](COC(C)=O)O4)cc3c2C#Cc2ccc(C)cc2)cc1	HEL human embryonic lung	cell morphology			minimum cytotoxic concentration	100 µM
COc1ccc(N2C(=O)N(c3c(C)cccc3Cl)Cc3cnc(Nc4ccc(N5CCN(C)CC5)cc4)nc32)nc1	mouse BMDCs		added: zymosan A		CC50	0.19 ± 0.06 µM
CCCCCc1ccc(C#Cc2c(-c3ccc(CCCCC)cc3)oc3nc(=O)n([C@H]4C[C@H](OC(C)=O)[C@@H](COC(C)=O)O4)cc23)cc1	HEL human embryonic lung	cell morphology			minimum cytotoxic concentration	100 µM
CCCCCCCC/C=C\CCCCCCCCOC(=O)C1=C(C)NC(=S)NC1c1ccc(OC)cc1 (centres unmarked)	C2C12	cell growth or viability, MTT	10 µM, 48 h		viability	~70%
CCCN(CCC)c1cc2[nH]c(C3CCCCC3)nc2cc1NC(=O)OCc1ccccc1	Vero	cytotoxicity, Alamar Blue	3 days, 37 °C		IC50	> 100 µg/mL
Cc1cc(OCc2nnc(SC3CCCC3)n2-c2cccnc2)ccc1-c1ccc(S(C)(=O)=O)cc1	Huh-7 cells, uninfected		0.25 µM, 5 days		viability	54 ± 2%
CCCCCc1ccc(-c2oc3nc(=O)n([C@H]4C[C@H](OC(C)=O)[C@@H](COC(C)=O)O4)cc3c2C#CCCO)cc1	HEL human embryonic lung	cell morphology			minimum cytotoxic concentration	100 µM
CCN(CC)c1cc2[nH]c(C3CCCCC3)nc2cc1NC(=O)c1ccc(Br)cc1	Vero	cytotoxicity, Alamar Blue	3 days, 37 °C		IC50	> 100 µg/mL

Molecule	cell line	test	conditions	scale	endpoint	value
CC(=O)OC[C@H]1O[C@@H](n2cc3c(C#CCO)c(-c4ccc(C)cc4)oc3nc2=O)C[C@@H]1OC(C)=O	HEL human embryonic lung	cell morphology			minimum cytotoxic concentration	> 100 µM
O=C(O[C@@H]1Cc2c(O)cc(O)cc2O[C@@H]1c1cc(O)c(O)c(O)c1)c1cc(O)c(O)c(O)c1	RPMI-8226	ATP luminescence	added: 40 nM bortezomib		concentration reversing cytotoxicity	≥ 11 µM
COc1ccc2c(O[C@@H]3C[C@H]4C(=O)N[C@]5(C(=O)NS(=O)(=O)C6CC6)C[C@H]5/C=C\CCCCN(C)C(=O)[C@@H]4C3)cc(-c3nc(C(C)C)cs3)nc2c1C	Caco-2 monolayer		added: efflux inhibitor cocktail	B-A over A-B	efflux ratio	13
CCCCCCCC/C=C\CCCCCCCCOC(=O)C1=C(C)NC(=O)NC1c1cccc(O)c1 (centres unmarked)	C2C12	MTT	10 µM, 48 h		viability	77%
CCN(Cc1ccccc1OC)C(=O)c1cc(C)c(C)s1	HEK293	cell viability, MTT	72 h		IC50	20 ± 3.8 µM
CCN(CC)c1cc2[nH]c(C3CCCCC3)nc2cc1NC(=O)c1ccc(OC(F)F)cc1	Vero	cytotoxicity, Alamar Blue	3 days, 37 °C		IC50	> 100 µg/mL
CCCN(Cc1ccccc1OC)C(=O)c1cccc(Br)c1	HEK293	cell viability, MTT	72 h		IC50	9.2 ± 4.9 µM
COCC#Cc1c(-c2ccc(C)cc2)oc2nc(=O)n([C@H]3C[C@H](OC(C)=O)[C@@H](COC(C)=O)O3)cc12	HEL human embryonic lung	cell morphology			minimum cytotoxic concentration	> 100 µM
CC(C)(C)c1cc(C(C)(C)C)c(NC(=O)c2c[nH]c3ccccc3c2=O)cc1O	Calu-3	MTT	15 µg/mL, 24 h	baseline: untreated control	viability	56.4 ± 9%
COc1ccc(N2C(=O)N(c3c(C)cccc3Cl)Cc3cnc(Nc4ccc(C5CCN(C)CC5)cc4OC)nc32)nc1	mouse BMDCs		added: zymosan A		CC50	> 10 µM
CC1CS(=O)(=O)CCN1/N=C/c1ccc([N+](=O)[O-])o1 (centres unmarked)	J774	cell growth or viability, WST-1	24 h		CC50	140 µM
COC(=O)N[C@H](C(=O)N1CCC[C@H]1c1nc(-c2ccc(-c3ccc(-c4c[nH]c([C@@H]5CCCN5C(=O)[C@@H](NC(=O)OC)C(C)C)n4)cc3)cc2)c[nH]1)C(C)C	Caco-2 monolayer		added: efflux inhibitor cocktail		Papp A-B	15 ± 1.6 ×10⁻⁶ cm/s
C[C@H]1O[C@@H](O[C@H]2CC[C@@]3(C)[C@@H](CC[C@]4(C)[C@@H]3C=CC3=C5CC(C)(C)CC[C@]5(CO)[C@H](O)C[C@]34C)[C@]2(C)CO)[C@H](O)[C@@H](O[C@@H]2O[C@H](CO)[C@@H](O)[C@H](O)[C@H]2O)[C@H]1O	Caco-2 monolayer	Caco-2 bidirectional transport	10 µM, 3 h, 37 °C		recovery apical to basolateral	61.8%
Cc1ccc(C(=O)Nc2cc3nc(C4CCCCC4)[nH]c3cc2N2CCCC2)cc1	Vero	cytotoxicity, Alamar Blue	3 days, 37 °C		IC50	> 100 µg/mL
C=C[C@@H]1C[C@]1(NC(=O)[C@@H]1C[C@@H](Oc2ncc(OC)c3ccc(Cl)cc23)CN1C(=O)[C@@H](NC(=O)OC(C)(C)C)C(C)(C)C)C(=O)NS(=O)(=O)C1CC1	Caco-2 monolayer		added: efflux inhibitor cocktail	B-A over A-B	efflux ratio	4.1
CCN(CC)c1cc2[nH]c(C3CCCCC3)nc2cc1NC(=O)OCCOCCOC	Vero	cytotoxicity, Alamar Blue	3 days, 37 °C		IC50	> 100 µg/mL
CCCCCCCC/C=C\CCCCCCCCOC(=O)C1=C(C)NC(=S)NC1c1cccc(O)c1 (centres unmarked)	C2C12	cell growth or viability, MTT	10 µM, 48 h		viability	~70%
Cc1ccc(NC(=O)CSc2nnc(Cn3cnc4c3c(=O)n(C)c(=O)n4C)n2-c2ccccc2)cc1	bovine erythrocytes		1 mg/mL, 30 min, 37 °C		haemolysis	0.39%
CCCCCC(=O)Nc1cc2nc(C3CCCCC3)[nH]c2cc1N(C)C	Vero	cytotoxicity, Alamar Blue	3 days, 37 °C		IC50	> 100 µg/mL

Excerpt of the above:
Molecule	cell line	test	conditions	scale	endpoint	value
COCC#Cc1c(-c2ccc(C)cc2)oc2nc(=O)n([C@H]3C[C@H](OC(C)=O)[C@@H](COC(C)=O)O3)cc12	HEL human embryonic lung	cell morphology			minimum cytotoxic concentration	> 100 µM
CN(C)c1cc2[nH]c(C3CCCCC3)nc2cc1NC(=O)c1ccc(F)cc1F	Vero	cytotoxicity, Alamar Blue	3 days, 37 °C		IC50	> 100 µg/mL
CCN(CC)c1cc2[nH]c(C3CCCCC3)nc2cc1NC(=O)OCCOCCOC	Vero	cytotoxicity, Alamar Blue	3 days, 37 °C		IC50	> 100 µg/mL
